Results pooled from the literature.
Each numbered part is a random draw from the data of one study; scales do not carry over between parts.

Study 1
Target: Histone acetyltransferase KAT6A, winged helix 1, GST fusion (KAT6A, Homo sapiens, UniProt Q92794, residues 1-85)
Method: protein binding microarray
Form: double-stranded DNA, one strand shown
Sample: in vitro
Concentration: not given
Setting: 8-mer, flanks averaged, mean of 2 arrays, mostly near background
Relative to: not given
Reading: higher = stronger binding
Residues (chain): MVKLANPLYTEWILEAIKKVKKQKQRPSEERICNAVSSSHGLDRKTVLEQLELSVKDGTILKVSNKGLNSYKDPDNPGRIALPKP
The E-score of `TGTGTCAA` is reported as -0.214.
With `CGGTCGAC` the E-score was 0.26.
The E-score of `CCGTAATA` is reported as 0.283.
`ACCGGGCA` has an E-score of 0.273.
`ATGTGATA` has an E-score of 0.0102.
The E-score of `CATGGCCG` is reported as 0.275.

Study 2
Molecule: PhoQ, residues 284 288 289 292 302 303 ASVMEA
Method: Sort-seq
Measured: YFP reporter
Sample: E. coli
Setting: PhoQ-PhoP variant library
Together with: 10 µM Mg2+
Relative to: high Mg2+ state
Reading: higher = stronger signaling
The fold induction was 24 (PhoP, residues 12 14 15 18 19 QYFSL (Escherichia coli, UniProt P23836)).
It gave 19.2 for fold induction (PhoP, residues 12 14 15 18 19 NYFRM (Escherichia coli, UniProt P23836)).
For PhoP, residues 12 14 15 18 19 TQALL (Escherichia coli, UniProt P23836): fold induction read 6.19.

Study 3
Target: Sal-like protein 4, full length isoform B (SALL4, Homo sapiens, UniProt Q9UJQ4-2, residues 1-616)
Method: universal PBM
Form: double-stranded DNA, one strand shown
Sample: in vitro
Concentration: not given
Setting: 8-mer, flanks averaged, mean of replicates
Reading: higher = stronger binding
`CTGTGGGA` has an E-score of -0.232.
`AAATTCAT` gave an E-score of 0.315.
`GAGATCAA` gave an E-score of 0.0483.

Study 4
Target: Interferon regulatory factor 7, full length, phosphomimetic (IRF7, Homo sapiens, UniProt Q92985, residues 1-503, S101K/S471D/S472D/S475D/S476D/S477D/S483D/S484D/S487D)
UniProt Q92985, sequence (whole entry, unmodified, looked up): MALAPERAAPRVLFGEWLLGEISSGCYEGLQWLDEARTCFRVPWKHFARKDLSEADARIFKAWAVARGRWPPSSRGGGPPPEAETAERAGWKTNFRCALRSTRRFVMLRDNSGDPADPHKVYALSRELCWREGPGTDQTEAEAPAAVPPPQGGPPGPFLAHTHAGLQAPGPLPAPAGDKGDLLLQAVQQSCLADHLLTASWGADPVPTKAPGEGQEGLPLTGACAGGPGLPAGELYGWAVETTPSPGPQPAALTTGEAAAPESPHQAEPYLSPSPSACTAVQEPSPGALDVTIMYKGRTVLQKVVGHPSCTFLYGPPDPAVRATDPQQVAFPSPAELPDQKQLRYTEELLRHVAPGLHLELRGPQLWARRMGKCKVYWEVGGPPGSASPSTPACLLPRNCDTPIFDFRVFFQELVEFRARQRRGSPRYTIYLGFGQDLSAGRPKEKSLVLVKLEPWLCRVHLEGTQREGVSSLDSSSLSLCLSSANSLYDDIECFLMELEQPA
Method: protein-binding microarray
Form: double-stranded DNA, one strand shown
Sample: in vitro
Concentration: 250 nM
Setting: 60-bp whole probe
Together with: salmon DNA 0.4 mg/ml
Relative to: random background probes
Reading: higher = stronger binding
All sequences stand within: GCCTAGCAC … GTCTTGATTCGCTTGACGCTGCTG
`TACGGTTTCCTTATCCTGACGTGCTAG` has a log fluorescence of 3.25 z-score.
`GACTGTTTCGGGTATCGGGACGTGCTA` gave a log fluorescence of 3 z-score.
The log fluorescence of `GACGGACTGGGGTTTCGGGCCGTGCTA` is reported as -0.109 z-score.
With `TTAGGTAGCGGTCTCGGTTAGTGCTAG` the log fluorescence was 0.843 z-score.
With `TTAGGACAGCTTTTCCTTTAGTGCTAG` the log fluorescence was 0.596 z-score.

For quick reference, copied from above (study 1):
`ATGTGATA` has an E-score of 0.0102.
`ACCGGGCA` has an E-score of 0.273.
The E-score of `CATGGCCG` is reported as 0.275.
